{"data": "Experimental data gathered from unrelated publications", "note": "Protocols differ between the studies behind these lines. ± gives the spread as reported."}
{"SMILES": "FC(F)(F)[C@@]1(c2ccccc2)COC[C@@H](c2cccnc2)N1", "technique": "shake-flask, 1-octanol/buffer", "pH": "pH 7.4", "logD": "> 4.7"}
{"SMILES": "CN1C(=O)Cc2ccc(F)c(CCNCC[C@H]3CN(c4ccc5c(n4)NC(=O)CO5)C(=O)O3)c21", "technique": "eLogD", "logD": 0.96}
{"SMILES": "COc1ccc2c3c1O[C@H]1[C@@H](O)C=C[C@@]4(O)[C@@H](C2)N(C)CC[C@]314", "sample": "octanol/buffer", "time": "1 h", "pH": "pH 7.4", "logD": -0.86}
{"SMILES": "CCOC(=O)C(CC)(CCCSCCOCCOCCNc1ccc([N+](=O)[O-])c2nonc12)NC(=O)c1ccc(C2CC2)c(Cc2ccc(F)cc2)n1 (racemic)", "logD": 2.8}
{"SMILES": "O=C(O)CCc1ccccc1", "pH": "pH 7.4", "setting": "first measurement", "logD": -0.29}
{"SMILES": "CC(C)C[C@@H](NC(=O)[C@H](C)NC(=O)CNC(=O)[C@@H](NC=O)C(C)C)C(=O)N[C@@H](C)C(=O)N[C@@H](C(=O)N[C@H](C(=O)N[C@@H](C(=O)N[C@@H](Cc1c[nH]c2ccccc12)C(=O)N[C@H](CC(C)C)C(=O)N[C@@H](Cc1cccc2cc[nH]c12)C(=O)N[C@H](CC(C)C)C(=O)N[C@@H](Cc1c[nH]c2ccccc12)C(=O)N[C@H](CC(C)C)C(=O)N[C@@H](Cc1c[nH]c2ccccc12)C(=O)NCCO)C(C)C)C(C)C)C(C)C", "technique": "UHPLC retention on C18", "logD": 6.49}
{"SMILES": "c1ccc(CCc2nnn[nH]2)cc1", "pH": "pH 7.4", "setting": "third measurement", "logD": -0.17}
{"SMILES": "NC(=O)[C@@H]1CC(F)(F)CN1C(=O)c1ccc(N2CC(F)(F)C2)c(OCC2CC2)n1", "pH": "pH 7.4", "logD": "2.47 ± 0.03"}
{"SMILES": "Cn1c(=O)cnc2ccc(F)c(CCNC[C@H]3CN(c4cnc5c(n4)NC(=O)CO5)C(=O)O3)c21", "technique": "eLogD", "logD": 1.12}
{"SMILES": "CCCCC1CNC2CCc3ccc(OC)cc3C12.Cl (racemic)", "sample": "octanol/aqueous buffer", "pH": "pH 7.4", "logD": 1.81}
{"SMILES": "CC(c1ccc(F)cc1)n1cc(-c2cc(F)cc(F)c2)c(=O)[nH]c1=O (stereo not shown)", "sample": "octanol/water", "pH": "pH 7.4", "logD": 3.27}
{"SMILES": "CS(=O)(=O)NC(=O)NCc1ccccc1", "pH": "pH 7.4", "setting": "second measurement", "logD": -1.29}
{"SMILES": "CC(c1ccccn1)n1cc(-c2cc(F)cc3c(C#N)n[nH]c23)c(=O)[nH]c1=O (stereo not shown)", "sample": "octanol/water", "pH": "pH 7.4", "logD": 2.13}
{"SMILES": "CN1CC[C@]23c4c5ccc(O)c4O[C@H]2[C@@H](O)C=C[C@@]3(O)[C@H]1C5", "sample": "octanol/buffer", "time": "1 h", "pH": "pH 7.4", "logD": -0.93}
{"SMILES": "CC(C)C[C@@H](NC(=O)[C@H](C)NC(=O)CNC(=O)[C@@H](NC=O)C(C)C)C(=O)N[C@@H](C)C(=O)N[C@@H](C(=O)N[C@H](C(=O)N[C@@H](C(=O)N[C@@H](Cc1c[nH]c2ccccc12)C(=O)N[C@H](CC(C)C)C(=O)N[C@@H](Cc1ccc2[nH]ccc2c1)C(=O)N[C@H](CC(C)C)C(=O)N[C@@H](Cc1c[nH]c2ccccc12)C(=O)N[C@@H](C(=O)N[C@@H](Cc1c[nH]c2ccccc12)C(=O)NCCO)C(C)C)[C@H](C)O)C(C)C)C(C)C", "technique": "UHPLC retention on C18", "logD": 4.02}
{"SMILES": "Fc1ccc(N2CCNCC2COc2ccc3c(c2)OCO3)cc1 (stereo not shown)", "technique": "experimental partition", "pH": "pH 7.4", "logD": "2.1 ± 0.04"}
{"SMILES": "CC(c1ccccc1)n1cc(-c2cc(F)cc3c(C#N)n[nH]c23)c(=O)[nH]c1=O (stereo not shown)", "sample": "octanol/water", "pH": "pH 7.4", "logD": 3.06}
{"SMILES": "CN1CC[C@]23c4c5ccc(O)c4O[C@H]2[C@@H](O)CC[C@@]3(O)[C@H]1C5", "sample": "octanol/buffer", "time": "1 h", "pH": "pH 7.4", "logD": -1.05}
{"SMILES": "CC(C)C[C@@H](NC(=O)[C@H](C)NC(=O)CNC(=O)[C@@H](NC=O)C(C)C)C(=O)N[C@@H](C)C(=O)N[C@@H](C(=O)N[C@H](C(=O)N[C@@H](C(=O)N[C@@H](Cc1c[nH]c2ccccc12)C(=O)N[C@H](CC(C)C)C(=O)N[C@@H](Cc1cccc2[nH]ccc12)C(=O)N[C@H](CC(C)C)C(=O)N[C@@H](Cc1c[nH]c2ccccc12)C(=O)N[C@H](CC(C)C)C(=O)N[C@@H](Cc1c[nH]c2ccccc12)C(=O)NCCO)C(C)C)C(C)C)C(C)C", "technique": "UHPLC retention on C18", "logD": 5.1}
{"SMILES": "O=C1NC(=O)C(Cc2ccccc2)S1 (stereo not shown)", "pH": "pH 7.4", "setting": "third measurement", "logD": 1.09}
{"SMILES": "[2H]C([2H])([2H])C1(C([2H])([2H])[2H])NC(=O)N(c2ccc(F)c(C(F)(F)F)c2)C1=O", "technique": "chromatographic HPLC", "pH": "pH 7.4", "logD": 2.7}
{"SMILES": "NCCCC1CN(c2ccc3c(n2)NC(=O)CO3)C(=O)O1 (stereo not shown)", "technique": "eLogD", "logD": -1.1}
{"SMILES": "COc1ccc2c3c1O[C@H]1[C@@H](O)CC[C@@]4(O)[C@@H](C2)N(C)CC[C@]314", "sample": "octanol/borax buffer", "time": "1 h", "pH": "pH 9.22", "logD": 0.69}
{"SMILES": "O=C(O)CNC(=O)C1C(=O)N(C2CCCCC2)C(=O)N(C2CCCCC2)C1=O", "technique": "miniaturised shake-flask", "sample": "1-octanol/water", "logD": 1}
{"SMILES": "C[C@]12CC[C@H]3[C@@H](CC=C4CC(O)CC[C@@]43CO)[C@@H]1CCC2O (stereo partly shown)", "logD": 2.14}
{"note": "A few entries again:"}
{"SMILES": "FC(F)(F)[C@@]1(c2ccccc2)COC[C@@H](c2cccnc2)N1", "technique": "shake-flask, 1-octanol/buffer", "pH": "pH 7.4", "logD": "> 4.7"}
{"SMILES": "CN1C(=O)Cc2ccc(F)c(CCNCC[C@H]3CN(c4ccc5c(n4)NC(=O)CO5)C(=O)O3)c21", "technique": "eLogD", "logD": 0.96}
{"SMILES": "COc1ccc2c3c1O[C@H]1[C@@H](O)C=C[C@@]4(O)[C@@H](C2)N(C)CC[C@]314", "sample": "octanol/buffer", "time": "1 h", "pH": "pH 7.4", "logD": -0.86}
